Measurements of several laboratories.
A part holds a random share of what one study measured. Values joined by “and” are separate records of one study, mostly repeats; a detail may differ.
UniProt Q8N568, sequence (whole entry, looked up): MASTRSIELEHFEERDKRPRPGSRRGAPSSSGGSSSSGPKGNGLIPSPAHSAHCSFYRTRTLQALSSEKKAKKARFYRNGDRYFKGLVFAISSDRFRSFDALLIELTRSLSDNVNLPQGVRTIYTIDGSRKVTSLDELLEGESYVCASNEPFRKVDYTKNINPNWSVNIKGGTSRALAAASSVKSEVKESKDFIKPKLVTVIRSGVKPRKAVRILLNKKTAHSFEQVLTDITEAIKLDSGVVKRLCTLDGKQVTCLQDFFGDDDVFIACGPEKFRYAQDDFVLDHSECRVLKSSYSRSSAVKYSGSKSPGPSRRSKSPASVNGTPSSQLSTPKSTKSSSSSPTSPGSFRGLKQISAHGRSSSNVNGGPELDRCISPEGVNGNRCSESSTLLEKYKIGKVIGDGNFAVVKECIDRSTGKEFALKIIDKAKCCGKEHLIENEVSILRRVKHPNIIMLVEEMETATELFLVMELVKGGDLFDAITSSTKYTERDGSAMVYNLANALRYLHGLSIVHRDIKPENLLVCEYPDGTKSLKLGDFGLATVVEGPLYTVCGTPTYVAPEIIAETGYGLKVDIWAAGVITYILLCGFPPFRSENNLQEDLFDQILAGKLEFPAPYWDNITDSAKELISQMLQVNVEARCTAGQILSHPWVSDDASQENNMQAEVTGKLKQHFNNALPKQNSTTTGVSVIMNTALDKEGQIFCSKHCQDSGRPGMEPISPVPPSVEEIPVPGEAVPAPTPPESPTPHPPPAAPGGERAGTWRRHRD
UniProt O60331, sequence (whole entry, looked up): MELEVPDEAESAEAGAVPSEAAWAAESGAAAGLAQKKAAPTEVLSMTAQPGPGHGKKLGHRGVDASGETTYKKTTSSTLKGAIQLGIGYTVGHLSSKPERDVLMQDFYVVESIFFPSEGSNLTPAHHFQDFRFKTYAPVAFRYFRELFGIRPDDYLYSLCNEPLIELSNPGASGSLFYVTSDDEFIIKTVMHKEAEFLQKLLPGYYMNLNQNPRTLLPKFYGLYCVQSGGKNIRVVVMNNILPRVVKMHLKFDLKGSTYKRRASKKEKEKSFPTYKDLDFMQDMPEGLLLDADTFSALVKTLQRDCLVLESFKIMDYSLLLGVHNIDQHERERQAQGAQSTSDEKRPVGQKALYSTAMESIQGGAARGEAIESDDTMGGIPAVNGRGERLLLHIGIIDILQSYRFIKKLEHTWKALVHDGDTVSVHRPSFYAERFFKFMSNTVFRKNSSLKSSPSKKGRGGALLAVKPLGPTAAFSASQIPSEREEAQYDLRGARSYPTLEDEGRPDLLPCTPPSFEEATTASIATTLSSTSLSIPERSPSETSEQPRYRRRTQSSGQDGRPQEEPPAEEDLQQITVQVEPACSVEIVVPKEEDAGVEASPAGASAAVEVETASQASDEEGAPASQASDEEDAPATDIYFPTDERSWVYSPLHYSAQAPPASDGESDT
UniProt Q9H093, sequence (whole entry, looked up): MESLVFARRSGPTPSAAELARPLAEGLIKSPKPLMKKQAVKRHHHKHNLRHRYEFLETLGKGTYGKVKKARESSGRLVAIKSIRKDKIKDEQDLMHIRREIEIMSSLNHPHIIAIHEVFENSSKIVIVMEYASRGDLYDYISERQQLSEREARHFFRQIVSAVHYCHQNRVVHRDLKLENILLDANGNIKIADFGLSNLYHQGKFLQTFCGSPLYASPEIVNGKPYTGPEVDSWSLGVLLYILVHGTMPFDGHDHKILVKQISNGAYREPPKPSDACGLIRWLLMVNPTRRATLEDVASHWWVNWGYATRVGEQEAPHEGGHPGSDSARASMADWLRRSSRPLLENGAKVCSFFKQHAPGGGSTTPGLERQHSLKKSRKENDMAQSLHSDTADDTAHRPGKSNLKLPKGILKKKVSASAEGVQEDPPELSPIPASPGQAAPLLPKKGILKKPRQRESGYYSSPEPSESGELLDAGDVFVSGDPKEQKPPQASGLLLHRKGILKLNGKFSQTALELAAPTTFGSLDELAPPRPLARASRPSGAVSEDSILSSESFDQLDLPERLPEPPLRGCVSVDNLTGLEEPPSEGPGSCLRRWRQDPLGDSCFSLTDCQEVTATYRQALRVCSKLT
UniProt P78356, sequence (whole entry, looked up): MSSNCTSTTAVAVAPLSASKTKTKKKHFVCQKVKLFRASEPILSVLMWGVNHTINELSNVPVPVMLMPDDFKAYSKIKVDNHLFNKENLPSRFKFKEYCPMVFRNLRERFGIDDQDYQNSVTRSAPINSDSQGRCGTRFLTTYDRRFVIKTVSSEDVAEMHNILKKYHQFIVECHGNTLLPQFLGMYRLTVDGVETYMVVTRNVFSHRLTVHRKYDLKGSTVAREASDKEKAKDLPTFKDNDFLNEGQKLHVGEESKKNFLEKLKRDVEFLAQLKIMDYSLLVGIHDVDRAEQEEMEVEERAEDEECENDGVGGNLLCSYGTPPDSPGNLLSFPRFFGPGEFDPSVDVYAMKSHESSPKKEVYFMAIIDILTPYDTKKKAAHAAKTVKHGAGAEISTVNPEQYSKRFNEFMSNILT
UniProt P42680, sequence (whole entry, looked up): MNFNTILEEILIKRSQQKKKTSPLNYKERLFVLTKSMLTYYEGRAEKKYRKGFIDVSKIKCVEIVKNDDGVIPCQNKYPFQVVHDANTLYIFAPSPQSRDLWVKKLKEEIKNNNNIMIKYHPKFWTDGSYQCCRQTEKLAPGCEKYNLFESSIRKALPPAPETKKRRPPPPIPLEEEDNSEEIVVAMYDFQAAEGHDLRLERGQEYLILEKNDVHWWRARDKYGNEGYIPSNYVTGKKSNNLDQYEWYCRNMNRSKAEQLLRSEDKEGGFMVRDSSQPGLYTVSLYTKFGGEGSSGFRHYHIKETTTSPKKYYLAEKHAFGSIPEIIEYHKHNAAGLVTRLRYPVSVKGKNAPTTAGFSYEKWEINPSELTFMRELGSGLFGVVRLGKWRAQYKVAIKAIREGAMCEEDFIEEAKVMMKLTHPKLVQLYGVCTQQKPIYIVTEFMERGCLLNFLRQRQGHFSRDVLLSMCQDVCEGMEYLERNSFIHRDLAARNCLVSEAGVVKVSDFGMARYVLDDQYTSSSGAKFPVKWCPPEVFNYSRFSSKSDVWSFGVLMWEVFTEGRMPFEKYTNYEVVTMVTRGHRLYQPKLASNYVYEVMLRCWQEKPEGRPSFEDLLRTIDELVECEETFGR
UniProt Q59H18, sequence (whole entry, looked up): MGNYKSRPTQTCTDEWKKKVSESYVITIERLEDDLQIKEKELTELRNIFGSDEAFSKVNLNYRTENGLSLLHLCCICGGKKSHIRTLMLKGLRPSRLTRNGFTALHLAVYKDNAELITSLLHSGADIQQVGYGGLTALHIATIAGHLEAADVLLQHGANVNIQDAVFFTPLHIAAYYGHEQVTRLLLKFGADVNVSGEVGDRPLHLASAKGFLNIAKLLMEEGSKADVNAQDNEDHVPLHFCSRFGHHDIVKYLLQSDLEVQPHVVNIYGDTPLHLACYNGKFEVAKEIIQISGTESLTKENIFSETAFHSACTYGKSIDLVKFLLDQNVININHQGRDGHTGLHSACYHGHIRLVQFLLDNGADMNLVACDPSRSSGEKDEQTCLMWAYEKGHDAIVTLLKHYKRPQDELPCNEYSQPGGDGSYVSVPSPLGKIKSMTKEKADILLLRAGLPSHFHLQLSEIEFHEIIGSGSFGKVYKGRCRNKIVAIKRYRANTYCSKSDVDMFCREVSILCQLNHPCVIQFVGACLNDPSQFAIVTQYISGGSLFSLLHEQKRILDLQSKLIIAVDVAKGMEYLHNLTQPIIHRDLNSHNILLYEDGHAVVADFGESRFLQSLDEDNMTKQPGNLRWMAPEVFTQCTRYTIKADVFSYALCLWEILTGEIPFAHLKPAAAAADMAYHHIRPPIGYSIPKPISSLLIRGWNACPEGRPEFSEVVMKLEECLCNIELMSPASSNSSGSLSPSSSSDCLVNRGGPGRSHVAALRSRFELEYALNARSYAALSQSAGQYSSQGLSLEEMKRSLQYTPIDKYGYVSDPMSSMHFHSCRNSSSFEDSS

Set 1
Target: Tyrosine-protein kinase ZAP-70 (ZAP70, Homo sapiens, UniProt P43403)
UniProt P43403, sequence (whole entry, looked up): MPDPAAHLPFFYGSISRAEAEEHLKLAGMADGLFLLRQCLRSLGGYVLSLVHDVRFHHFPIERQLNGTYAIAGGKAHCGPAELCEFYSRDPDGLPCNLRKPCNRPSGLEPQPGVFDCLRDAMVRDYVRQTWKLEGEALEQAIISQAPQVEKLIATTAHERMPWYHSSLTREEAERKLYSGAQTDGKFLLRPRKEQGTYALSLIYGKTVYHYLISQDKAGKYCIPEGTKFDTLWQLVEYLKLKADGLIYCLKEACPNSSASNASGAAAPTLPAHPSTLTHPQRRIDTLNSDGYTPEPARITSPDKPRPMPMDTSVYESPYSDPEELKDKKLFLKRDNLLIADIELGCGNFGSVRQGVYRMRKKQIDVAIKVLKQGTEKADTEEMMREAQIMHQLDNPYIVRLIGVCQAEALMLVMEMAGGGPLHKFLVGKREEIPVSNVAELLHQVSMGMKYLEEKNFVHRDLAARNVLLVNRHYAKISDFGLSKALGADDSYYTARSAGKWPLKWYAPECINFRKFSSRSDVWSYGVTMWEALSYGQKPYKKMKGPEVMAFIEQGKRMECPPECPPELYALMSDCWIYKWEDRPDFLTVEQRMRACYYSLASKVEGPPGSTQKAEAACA
Read-out: enzyme activity
Action: inhibitor
Concentration: 0.5 µM
Relative to: control
SMILES | remaining activity [%]
O=c1cc(N2CCOCC2)oc2c(-c3ccccc3)cccc12 | 102
CN(C)S(=O)(=O)c1ccc2c(c1)/C(=C/c1cc3c([nH]1)CCCC3)C(=O)N2 | 90
CCCNC(=O)Nc1ccc(Oc2ncnc3cc(OC)c(OC)cc23)cc1Cl | 102
COc1cccc(-c2cc(=O)c3ccccc3o2)c1N | 107
COc1ccc2c(c1)c(C1=C(c3c[nH]c4ccccc34)C(=O)NC1=O)cn2CCCN(C)C | 90.3
CN1CCN(c2ccc3nc(-c4c(N)c5c(F)cccc5[nH]c4=O)[nH]c3c2)CC1 | 107
O=C1Nc2ccccc2/C1=C\c1c(Cl)[nH]c2ccccc12 | 106
Oc1cccc(-c2nc(N3CCOCC3)c3oc4ncccc4c3n2)c1 | 91.4
Cc1cc(Nc2cc(N3CCN(C)CC3)nc(Sc3ccc(NC(=O)C4CC4)cc3)n2)[nH]n1 | 106
O=C1Cc2c([nH]c3ccc(Br)cc23)-c2ccccc2N1 | 93.6
CCCCc1c(-c2ccc(OC)cc2)[nH]c2nccnc12 | 74.2

Set 2
SMILES: CNC(=O)c1ccc(Nc2ncc(C(F)(F)F)c(NCc3nccnc3N(C)S(C)(=O)=O)n2)cc1
Technique: competition with immobilised ligand
target | assay | setting | remaining binding
Mitogen-activated protein kinase 7 (MAPK7, Homo sapiens, UniProt Q13164) | cell-free assay | 0.1 µM | 87%
Ephrin type-A receptor 6 (EPHA6, Homo sapiens, UniProt Q9UF33) | cell-free assay | 0.1 µM | 85%
Dual specificity mitogen-activated protein kinase kinase 6 (MAP2K6, Homo sapiens, UniProt P52564) | cell-free assay | 0.1 µM | 77%
Phosphatidylinositol 5-phosphate 4-kinase type-2 beta (PIP4K2B, Homo sapiens, UniProt P78356) | cell-free assay | 0.1 µM | 91%
Serine/threonine-protein kinase TNNI3K (TNNI3K, Homo sapiens, UniProt Q59H18) | cell-free assay | 0.1 µM | 100%
Serine/threonine-protein kinase BRSK2 (BRSK2, Homo sapiens, UniProt Q8IWQ3) | cell-free assay | 0.1 µM | 100%
Ribosomal protein S6 kinase alpha-6, C-terminal kinase domain (RPS6KA6, Homo sapiens, UniProt Q9UK32) | cell-free assay | 0.1 µM | 49%
Focal adhesion kinase 1 (PTK2, Homo sapiens, UniProt Q05397) | binding | 1 µM | 0.2%
Serine/threonine-protein kinase DCLK2 (DCLK2, Homo sapiens, UniProt Q8N568) | cell-free assay | 0.1 µM | 71%
TGF-beta receptor type-2 (TGFBR2, Homo sapiens, UniProt P37173) | cell-free assay | 0.1 µM | 100%
Tyrosine-protein kinase ABL1, phosphorylated (ABL1, Homo sapiens, UniProt P00519, M351T) | cell-free assay | 0.1 µM | 100%
Phosphatidylinositol 4-phosphate 5-kinase type-1 gamma (PIP5K1C, Homo sapiens, UniProt O60331) | cell-free assay | 0.1 µM | 100%
NUAK family SNF1-like kinase 2 (NUAK2, Homo sapiens, UniProt Q9H093) | cell-free assay | 0.1 µM | 53%
Tyrosine-protein kinase Tec (TEC, Homo sapiens, UniProt P42680) | cell-free assay | 0.1 µM | 100%
Tyrosine-protein kinase ZAP-70 (ZAP70, Homo sapiens, UniProt P43403) | cell-free assay | 0.1 µM | 100%
Dual specificity mitogen-activated protein kinase kinase 5 (MAP2K5, Homo sapiens, UniProt Q13163) | cell-free assay | 0.1 µM | 89%

Set 3
Target: Calcium/calmodulin-dependent protein kinase type II subunit alpha (CAMK2A, Homo sapiens, UniProt Q9UQM7)
UniProt Q9UQM7, sequence (whole entry, looked up): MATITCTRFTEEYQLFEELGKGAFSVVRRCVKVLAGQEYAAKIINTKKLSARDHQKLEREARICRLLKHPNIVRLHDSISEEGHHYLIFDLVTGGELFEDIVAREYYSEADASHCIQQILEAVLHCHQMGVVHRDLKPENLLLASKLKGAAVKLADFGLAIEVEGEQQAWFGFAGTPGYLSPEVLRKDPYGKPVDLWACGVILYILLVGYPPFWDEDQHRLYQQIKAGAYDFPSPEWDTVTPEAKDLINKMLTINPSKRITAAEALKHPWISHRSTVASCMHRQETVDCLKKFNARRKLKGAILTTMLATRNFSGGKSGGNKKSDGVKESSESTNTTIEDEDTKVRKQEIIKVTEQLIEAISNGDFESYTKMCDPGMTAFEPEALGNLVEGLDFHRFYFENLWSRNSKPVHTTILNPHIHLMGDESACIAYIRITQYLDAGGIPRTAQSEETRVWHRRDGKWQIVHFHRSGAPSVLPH
Read-out: enzyme activity
Action: inhibitor
Concentration: 10 µM
SMILES | inhibition [%]
O=C(O)CCC(=O)OC[C@@H](NC(=O)C(Cl)Cl)[C@H](O)c1ccc([N+](=O)[O-])cc1 | 16
Nc1cc[nH]c(=O)n1 | -15
CC1=CC(=O)C(C(C)C)CC1 (stereo not drawn) | 36
COC(=O)C1=CO[C@@H](O[C@@H]2O[C@H](CO)[C@@H](O)[C@H](O)[C@H]2O)[C@H]2[C@@H]1[C@H](O)C[C@]2(C)OC(C)=O | -21
COc1ccc(CCO)cc1 | -13
NC(C(=O)O)C(=O)O | 25

Set 4
Cell line: mouse MPNST tumor cells
Technique: high-content nuclear imaging
Refers to: cell number
Concentration: 10 µM
Time: 12 h
Setting: mean of 2 replicates
Relative to: plate mean
Reading: higher = more cells
Structure (SMILES) | nuclei count
Cc1cccc(-c2[nH]ncc2-c2ccc3ncccc3n2)n1 | 0.913 z-score
C=C[C@@]1(C)CC(=O)[C@]2(O)[C@@]3(C)[C@@H](O)CCC(C)(C)[C@@H]3[C@H](O)[C@H](OC(C)=O)[C@@]2(C)O1 | 2.04 z-score
CO[C@H]1C[C@H](O[C@H]2[C@H](C)[C@@H](O[C@@H]3O[C@H](C)C[C@H](N(C)C)[C@H]3OC(C)=O)[C@@H](C)C[C@@]3(CO3)C(=O)[C@H](C)[C@@H](OC(C)=O)[C@@H](C)[C@@H](C)OC(=O)[C@@H]2C)O[C@@H](C)[C@@H]1OC(C)=O | 2.45 z-score
CCOC(=O)/C=C(C)/C=C/C=C(C)/C=C/c1c(C)cc(OC)c(C)c1C | -1.93 z-score
O=S1(=O)N[C@H]2CCCN2c2ccccc21 | 1.31 z-score
C=CC(=O)N1C[C@H](Nc2ncnc3[nH]ccc23)CC[C@@H]1C | 0.402 z-score
CC(C)(C)NCC(O)COc1cccc2c1CCC(=O)N2 (stereo not drawn) | 0.192 z-score
O=C1c2ccccc2-c2c(NCCc3ccccc3)c(=O)[nH]c3cccc1c23 | -0.0224 z-score
Cc1ccsc1C(=CCCN1CCC[C@@H](C(=O)O)C1)c1sccc1C | -0.686 z-score and 1.79 z-score
Cc1cccc(C#Cc2ccccc2)n1 | 0.634 z-score
CCn1c(-c2nonc2N)nc2cncc(C(=O)N3CC[C@H](N)C3)c21 | -1.38 z-score
CCOc1nc2cccc(C(=O)O)c2n1Cc1ccc(-c2ccccc2-c2nnn[nH]2)cc1 | 1.62 z-score and 0.493 z-score

A few entries again (set 4):
Structure (SMILES) | nuclei count
C=CC(=O)N1C[C@H](Nc2ncnc3[nH]ccc23)CC[C@@H]1C | 0.402 z-score
CC(C)(C)NCC(O)COc1cccc2c1CCC(=O)N2 (stereo not drawn) | 0.192 z-score
O=C1c2ccccc2-c2c(NCCc3ccccc3)c(=O)[nH]c3cccc1c23 | -0.0224 z-score
Cc1ccsc1C(=CCCN1CCC[C@@H](C(=O)O)C1)c1sccc1C | -0.686 z-score and 1.79 z-score
